Measurements from different studies.
Compare with care: the assays were run in different laboratories. ± gives the spread as reported.
Sequence of UniProt Q6U736 (whole entry, looked up): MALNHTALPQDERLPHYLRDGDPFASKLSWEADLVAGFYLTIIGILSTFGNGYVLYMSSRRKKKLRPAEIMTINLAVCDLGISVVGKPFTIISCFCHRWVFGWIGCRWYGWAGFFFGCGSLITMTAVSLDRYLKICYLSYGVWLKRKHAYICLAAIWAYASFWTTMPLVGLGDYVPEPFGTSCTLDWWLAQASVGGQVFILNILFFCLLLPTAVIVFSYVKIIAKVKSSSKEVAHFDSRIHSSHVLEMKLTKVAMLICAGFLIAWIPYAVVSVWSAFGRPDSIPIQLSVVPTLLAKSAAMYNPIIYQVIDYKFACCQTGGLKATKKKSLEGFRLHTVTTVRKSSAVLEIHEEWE
Sequence of UniProt O43684 (whole entry, looked up): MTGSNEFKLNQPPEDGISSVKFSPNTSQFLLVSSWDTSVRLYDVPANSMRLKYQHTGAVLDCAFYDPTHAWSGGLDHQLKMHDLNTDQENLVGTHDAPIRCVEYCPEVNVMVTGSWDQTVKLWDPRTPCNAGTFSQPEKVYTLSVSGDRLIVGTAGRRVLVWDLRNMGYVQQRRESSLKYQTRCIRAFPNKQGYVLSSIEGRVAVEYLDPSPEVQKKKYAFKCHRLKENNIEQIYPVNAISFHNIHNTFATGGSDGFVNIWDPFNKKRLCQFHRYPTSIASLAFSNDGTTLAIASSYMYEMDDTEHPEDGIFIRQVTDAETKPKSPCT
Sequence of UniProt Q92993 (whole entry, looked up): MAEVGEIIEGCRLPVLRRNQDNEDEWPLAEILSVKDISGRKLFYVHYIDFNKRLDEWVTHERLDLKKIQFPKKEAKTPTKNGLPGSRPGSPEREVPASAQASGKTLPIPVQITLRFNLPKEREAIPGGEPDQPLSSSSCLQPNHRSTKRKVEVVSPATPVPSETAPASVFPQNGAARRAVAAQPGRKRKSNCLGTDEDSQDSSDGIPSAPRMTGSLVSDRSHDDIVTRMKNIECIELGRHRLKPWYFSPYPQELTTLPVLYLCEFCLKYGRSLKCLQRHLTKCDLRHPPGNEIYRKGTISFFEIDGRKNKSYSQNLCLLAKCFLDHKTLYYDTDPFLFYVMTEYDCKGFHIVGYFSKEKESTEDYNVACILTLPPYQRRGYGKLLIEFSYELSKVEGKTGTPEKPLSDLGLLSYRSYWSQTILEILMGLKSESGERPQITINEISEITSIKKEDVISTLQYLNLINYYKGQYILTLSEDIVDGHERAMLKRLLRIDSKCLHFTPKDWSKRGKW
Sequence of UniProt P31391 (whole entry, looked up): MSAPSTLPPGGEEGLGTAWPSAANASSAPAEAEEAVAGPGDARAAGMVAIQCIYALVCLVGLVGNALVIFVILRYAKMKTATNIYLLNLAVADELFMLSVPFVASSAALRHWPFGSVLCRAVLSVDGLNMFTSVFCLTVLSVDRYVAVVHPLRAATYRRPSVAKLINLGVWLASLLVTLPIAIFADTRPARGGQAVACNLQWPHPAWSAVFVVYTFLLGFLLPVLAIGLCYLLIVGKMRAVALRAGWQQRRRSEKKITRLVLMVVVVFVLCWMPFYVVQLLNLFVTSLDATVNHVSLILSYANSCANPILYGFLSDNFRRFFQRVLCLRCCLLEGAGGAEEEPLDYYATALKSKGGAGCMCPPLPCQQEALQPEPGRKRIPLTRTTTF

CCc1ccc(CC/C=C/c2ccc3c(c2)C(=O)CC3)cc1
AST serum activity (Sprague-Dawley rat, female; oral, 120 mg/kg/day, 14 days): 107 U/L

Oc1ccc2c3c1O[C@H]1[C@@H](O)CC[C@@]4(O)[C@@H](C2)N(CC2CCC2)CC[C@]314
log2 fold change (Opsin-5 (OPN5, Homo sapiens, UniProt Q6U736); β-arrestin recruitment, TANGO luminescence, measured: OPN5; concentration not given; relative to: basal luminescence): 0.216

C[C@]1(CO)Cc2ncn(-c3ccc(C#N)c(Cl)c3)c2C(=O)O1
Cmax reduction (healthy subjects; oral, 10 mg, high-fat breakfast; relative to: fasted): ~23%

N#C[C@H](O[C@@H]1O[C@H](CO[C@@H]2O[C@H](CO)[C@@H](O)[C@H](O)[C@H]2O)[C@@H](O)[C@H](O)[C@H]1O)c1ccccc1
Tmax (Sprague Dawley rat, plasma; oral, 10 g lyophilized powder/kg, high dose): 10.2 ± 3.6 min

CC[C@H](C)[C@H](NC(=O)[C@H](Cc1ccccc1)NC(=O)[C@H](CCC(=O)O)NC(=O)[C@H](CCCNC(=N)N)NC(=O)[C@H](C)NC(=O)[C@H](C)NC(=O)[C@H](CCC(N)=O)NC(=O)[C@H](CCC(=O)O)NC(=O)[C@H](CCC(=O)O)NC(=O)[C@H](CC(C)C)NC(=O)[C@H](Cc1ccc(O)cc1)NC(=O)[C@H](CO)NC(=O)[C@H](CO)NC(=O)[C@@H](NC(=O)[C@H](CC(=O)O)NC(=O)[C@H](CO)NC(=O)[C@@H](NC(=O)[C@H](Cc1ccccc1)NC(=O)[C@@H](NC(=O)CNC(=O)[C@H](CCC(=O)O)NC(=O)[C@H](C)NC(=O)CCc1c[nH]cn1)[C@@H](C)O)[C@@H](C)O)C(C)C)C(=O)N[C@@H](C)C(=O)N[C@@H](Cc1c[nH]c2ccccc12)C(=O)N[C@@H](CC(C)C)C(=O)N[C@H](C(=O)N[C@@H](CCCNC(=N)N)C(=O)NCC(=O)N[C@@H](CCCNC(=N)N)C(=O)N[C@@H](CCCCNC(=O)COCCOCCNC(=O)COCCOCCNC(=O)CC[C@H](NC(=O)CCCCCCCCCCCCCCCCC(=O)O)C(=O)O)C(=O)NCC(=O)NCC(=O)N[C@@H](CO)C(=O)N[C@@H](CCCCNc1c(NCCCCCN(O)C(=O)CCC(=O)NCCCCCN(O)C(=O)CCC(=O)NCCCCCN(O)C(C)=O)c(=O)c1=O)C(=O)O)C(C)C [zirconium-89 labelled]
tissue uptake (rat, heart; iv, 3 nmol/kg, 72 h, ex vivo): 0.11 %ID/g

C[C@@H](O)[C@@H](CO)NC(=O)[C@@H](CCCNC(=N)N)NC(=O)[C@@H]1CCCN1C(=O)[C@@H]1CSSC[C@H](NC(=O)[C@H](Cc2ccccc2)NC(=O)CN2CCN(CC(=O)O)CCN(CC(=O)O)CCN(CC(=O)O)CC2)C(=O)N[C@@H](Cc2ccc(O)cc2)C(=O)N[C@@H](Cc2ccccc2)C(=O)N[C@@H](CCC(N)=O)C(=O)N[C@@H](CC(N)=O)C(=O)N1 [gallium-68 labelled]
tissue uptake (healthy Wistar rat, heart; intravenous, 8 MBq, 120 min, individual animals): 0.03 %ID/g

COc1cc2c(Oc3ccc4[nH]c(C)cc4c3F)ccnc2cc1OCC1(N)CC1
Haematochezia incidence (paediatric refractory sarcoma patients; 8 mg): 0%

O.O.O.O.O.O.[Cl-].[Cl-].[Co+2]
red blood cell count (Crl:CD(SD) rat female, blood; oral, 0.74 mg Co/kg/day, 90 days): 8.38 ×10E6/µl

COc1cc(Nc2ncc(F)c(Nc3ccc4c(n3)NC(=O)C(C)(C)O4)n2)cc(OC)c1OC
IC50 (SSTR4 (Homo sapiens, UniProt P31391)): > 10 µM

CCOc1ccccc1C(=O)Nc1ccc(Cl)c(C(F)(F)F)c1
SPR binding response (KAT5 (Homo sapiens, UniProt Q92993); SPR; 0.63 µM; higher = more binding): 0.133 RU

N=C(N)NCCC[C@@H](NC(=O)[C@@H](N)Cc1ccccc1)C(=O)N[C@@H](Cc1ccccc1)C(=O)N[C@@H](CCCCN)C(N)=O
mean amount excreted in urine (LC-MS; human; 5 mg, 11.83 h): 302000 ng

CC[C@H](C)[C@@H]1NC(=O)[C@@H]2CCCN2C(=O)[C@H](CC(C)C)NC(=O)[C@H](CC(C)C)NC(=O)CNC(=O)[C@@H](NC(=O)[C@@H](NC(=O)[C@H](CC(=O)O)NC(=O)CNC(=O)[C@@H](NC(=O)[C@H](C)NC(=O)CNC(=O)[C@H](CCCCN)NC(=O)[C@H](CC(C)C)NC(=O)[C@H](CC(C)C)NC(=O)[C@H](CCCCN)NC(=O)CNC(=O)[C@@H](NC(=O)[C@@H](N)CC(C)C)C(C)C)C(C)C)C(C)C)CSSC[C@@H](C(=O)O)NC1=O
log2 fold change (RNA-seq, measured: Il2rb mRNA; mouse traumatic brain injury, frontal cortex and hippocampus; dose not given; relative to: TBI plus compound vs TBI): -2.16

C[C@H]1CN(c2n[nH]c3nc(N[C@H]4CC[C@H](NS(=O)(=O)CCC(F)(F)F)CC4)ncc23)CCO1
remaining binding (Mitotic checkpoint protein BUB3 (Homo sapiens, UniProt O43684); Kinobeads competition, measured: BUB3; 0.8 µM, unit not given; relative to: vehicle): 1.15

N#C[C@@H]1CC(F)(F)CN1C(=O)CNC(=O)c1ccnc2ccc(OCCCN3CCN(C(=O)CN4CCN(CC(=O)[O-])CCN(CC(=O)[O-])CC4)CC3)cc12.[18F-].[Al+3]
tissue uptake (biodistribution, gamma counter; healthy rats, brain, muscle, bone, lung, spleen, liver, heart, blood; 2 h post-injection): < 0.52 %ID/g

C[C@@H](NC(=O)N1C(=O)[C@H](Cc2ccnc(N)c2)[C@H]1C(=O)O)C1CCCCC1
urine leukocyte-positive (healthy Chinese adults; continuous intravenous infusion, 0.6 mg/kg/h, 5.0 days): 0%

O=C1Nc2cc3[nH]nc(-c4ccncc4)c3cc2CN1Cc1ccccc1
patients with ≥1 TEAE (CTCAE v4.03; advanced solid tumour patients; intravenous, 7.2 mg/kg): 100%

CC(C)(C)c1cc(-n2nc3ccccc3n2)c(O)c(C(C)(C)C)c1
daily dermal uptake, percentile (exposure assessment; human, age 21-60 years; concentration not given, cream, 95th percentile): 5.03 ng/kg body weight/day

O=C(c1ccc(F)c(F)c1Nc1ccc(I)cc1F)N1CC(O)([C@@H]2CCCCN2)C1
serious adverse events (human patients; oral, dose not given, dose escalation, suspension): 23%

COc1ccc(-c2c(-c3ccc(C#N)c(F)c3)nc(N3CCC(N)CC3)n(C)c2=O)cc1F
serious adverse event incidence (measured: bone pain; human patients; oral, dose not given, dose escalation, NG): 2%

CO[C@H]1C[C@@H]2CC[C@@H](C)[C@@](O)(O2)C(=O)C(=O)N2CCCC[C@H]2C(=O)O[C@H]([C@H](C)C[C@@H]2CC[C@@H](OC(=O)NCCOCCOCCOCCOCCOCCOCCOCCOCCC(=O)N3CCc4cc(Cn5nc(-c6ccc7oc(N)nc7c6)c6c(N)ncnc65)ccc4C3)[C@H](OC)C2)C[C@@H](O)[C@H](C)/C=C(\C)[C@@H](O)[C@@H](OC)C(=O)[C@H](C)C[C@H](C)/C=C/C=C/C=C/1C
dose-reducing adverse events (phase 1 dose escalation, measured: pneumonia; advanced solid tumour patients; intravenous, 6 mg weekly, grade ≥3): 0%

O=C(Nc1ccccc1)C1CCN(C(=O)Oc2cccnc2)CC1
subjects with cardiac disorders (adverse event reporting; healthy women; oral, 60 mg, 7 days): 7.1%

A few entries again:
O=C(c1ccc(F)c(F)c1Nc1ccc(I)cc1F)N1CC(O)([C@@H]2CCCCN2)C1
serious adverse events (human patients; oral, dose not given, dose escalation, suspension): 23%

COc1ccc(-c2c(-c3ccc(C#N)c(F)c3)nc(N3CCC(N)CC3)n(C)c2=O)cc1F
serious adverse event incidence (measured: bone pain; human patients; oral, dose not given, dose escalation, NG): 2%

CO[C@H]1C[C@@H]2CC[C@@H](C)[C@@](O)(O2)C(=O)C(=O)N2CCCC[C@H]2C(=O)O[C@H]([C@H](C)C[C@@H]2CC[C@@H](OC(=O)NCCOCCOCCOCCOCCOCCOCCOCCOCCC(=O)N3CCc4cc(Cn5nc(-c6ccc7oc(N)nc7c6)c6c(N)ncnc65)ccc4C3)[C@H](OC)C2)C[C@@H](O)[C@H](C)/C=C(\C)[C@@H](O)[C@@H](OC)C(=O)[C@H](C)C[C@H](C)/C=C/C=C/C=C/1C
dose-reducing adverse events (phase 1 dose escalation, measured: pneumonia; advanced solid tumour patients; intravenous, 6 mg weekly, grade ≥3): 0%
